Results gathered from unrelated publications.
Each numbered part is a random draw from the data of one study; scales do not carry over between parts. Changes are numbered by the printed parent chain.
UniProt Q9Y2H9, sequence (whole entry, looked up): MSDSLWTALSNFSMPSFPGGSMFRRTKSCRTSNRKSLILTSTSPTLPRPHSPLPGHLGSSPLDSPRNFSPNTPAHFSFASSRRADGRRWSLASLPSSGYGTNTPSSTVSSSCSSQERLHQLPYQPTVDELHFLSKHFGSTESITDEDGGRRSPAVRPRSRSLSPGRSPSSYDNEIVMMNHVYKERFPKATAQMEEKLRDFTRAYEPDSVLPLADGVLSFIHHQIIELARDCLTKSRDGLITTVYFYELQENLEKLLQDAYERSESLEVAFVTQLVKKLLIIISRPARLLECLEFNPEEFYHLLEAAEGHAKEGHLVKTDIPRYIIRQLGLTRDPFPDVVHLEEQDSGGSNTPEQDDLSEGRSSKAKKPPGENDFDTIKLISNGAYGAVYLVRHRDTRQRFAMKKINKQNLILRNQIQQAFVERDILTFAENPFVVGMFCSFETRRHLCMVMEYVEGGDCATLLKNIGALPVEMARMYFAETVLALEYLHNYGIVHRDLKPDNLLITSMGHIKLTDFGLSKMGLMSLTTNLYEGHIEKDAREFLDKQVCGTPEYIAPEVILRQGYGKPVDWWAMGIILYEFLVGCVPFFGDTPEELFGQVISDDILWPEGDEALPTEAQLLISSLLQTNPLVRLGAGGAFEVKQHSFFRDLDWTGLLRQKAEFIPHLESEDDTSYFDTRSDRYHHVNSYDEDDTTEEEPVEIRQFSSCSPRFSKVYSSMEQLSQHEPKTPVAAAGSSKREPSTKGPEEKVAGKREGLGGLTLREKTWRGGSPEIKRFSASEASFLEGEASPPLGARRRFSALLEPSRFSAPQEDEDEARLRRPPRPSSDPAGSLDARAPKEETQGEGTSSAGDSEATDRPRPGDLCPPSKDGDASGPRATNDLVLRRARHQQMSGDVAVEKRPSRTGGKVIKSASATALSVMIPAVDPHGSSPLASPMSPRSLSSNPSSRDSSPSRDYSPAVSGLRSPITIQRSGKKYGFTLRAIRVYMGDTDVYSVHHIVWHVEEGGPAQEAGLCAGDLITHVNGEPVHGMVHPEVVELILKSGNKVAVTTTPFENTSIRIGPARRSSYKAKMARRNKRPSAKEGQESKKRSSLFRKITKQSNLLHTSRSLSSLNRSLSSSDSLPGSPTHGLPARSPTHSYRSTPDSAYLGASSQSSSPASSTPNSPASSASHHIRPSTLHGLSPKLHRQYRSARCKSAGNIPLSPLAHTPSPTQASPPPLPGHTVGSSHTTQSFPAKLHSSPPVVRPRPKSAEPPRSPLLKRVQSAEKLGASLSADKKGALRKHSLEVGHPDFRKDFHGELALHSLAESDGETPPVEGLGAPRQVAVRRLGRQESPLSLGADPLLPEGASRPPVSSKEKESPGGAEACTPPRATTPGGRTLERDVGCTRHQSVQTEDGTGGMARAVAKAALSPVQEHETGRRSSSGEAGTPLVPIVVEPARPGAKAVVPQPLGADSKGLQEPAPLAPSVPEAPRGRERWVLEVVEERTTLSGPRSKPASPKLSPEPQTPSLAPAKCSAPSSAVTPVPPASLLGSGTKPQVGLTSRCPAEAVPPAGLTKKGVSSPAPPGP
UniProt Q15569, sequence (whole entry, looked up): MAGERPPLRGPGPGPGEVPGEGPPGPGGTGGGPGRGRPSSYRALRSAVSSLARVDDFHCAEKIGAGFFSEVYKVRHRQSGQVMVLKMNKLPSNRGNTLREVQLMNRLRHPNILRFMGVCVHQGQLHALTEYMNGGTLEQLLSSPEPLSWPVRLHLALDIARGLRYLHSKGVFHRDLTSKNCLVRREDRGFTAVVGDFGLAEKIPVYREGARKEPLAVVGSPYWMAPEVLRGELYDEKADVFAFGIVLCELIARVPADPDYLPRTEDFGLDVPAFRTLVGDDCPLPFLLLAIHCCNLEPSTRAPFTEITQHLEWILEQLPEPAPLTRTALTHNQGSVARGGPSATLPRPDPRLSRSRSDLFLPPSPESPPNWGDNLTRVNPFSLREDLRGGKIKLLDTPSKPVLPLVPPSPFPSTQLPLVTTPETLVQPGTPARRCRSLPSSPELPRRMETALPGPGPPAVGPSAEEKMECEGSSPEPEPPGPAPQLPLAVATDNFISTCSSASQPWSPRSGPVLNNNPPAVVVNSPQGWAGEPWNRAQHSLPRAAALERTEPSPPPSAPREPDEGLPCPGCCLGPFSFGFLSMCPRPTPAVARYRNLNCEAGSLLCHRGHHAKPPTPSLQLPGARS
UniProt O14730, sequence (whole entry, looked up): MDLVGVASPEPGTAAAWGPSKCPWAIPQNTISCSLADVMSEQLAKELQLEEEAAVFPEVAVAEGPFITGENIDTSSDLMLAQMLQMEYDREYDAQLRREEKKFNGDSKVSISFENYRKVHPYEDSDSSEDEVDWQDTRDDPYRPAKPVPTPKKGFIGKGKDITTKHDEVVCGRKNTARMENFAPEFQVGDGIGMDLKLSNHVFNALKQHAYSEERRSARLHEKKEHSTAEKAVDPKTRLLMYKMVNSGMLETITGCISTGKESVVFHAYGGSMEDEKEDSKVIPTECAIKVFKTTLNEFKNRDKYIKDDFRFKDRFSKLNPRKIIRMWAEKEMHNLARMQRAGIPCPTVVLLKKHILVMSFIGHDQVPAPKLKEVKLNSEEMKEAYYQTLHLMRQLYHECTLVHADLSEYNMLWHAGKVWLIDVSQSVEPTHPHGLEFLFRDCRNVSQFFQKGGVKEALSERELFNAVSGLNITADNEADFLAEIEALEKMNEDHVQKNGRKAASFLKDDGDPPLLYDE

Block 1
Target: Hepatocyte growth factor receptor (MET, Homo sapiens, UniProt P08581)
Read-out: enzyme activity
Action: inhibitor
Tested at: 0.5 µM
Reference: control
The remaining activity of `COc1ccc(CNC(=O)Nc2ncc([N+](=O)[O-])s2)cc1` is reported as 85.5%.
`COc1cc2nccc(Oc3ccc(NC(=S)NC(=O)c4ccccc4C)cc3)c2cc1OC` has a remaining activity of 60.4%.
`CCOC(=O)c1c(C)[nH]c(/C=C2\C(=O)Nc3ccccc32)c1C` has a remaining activity of 87.4%.
`CNC(=O)c1cc(Oc2ccc(NC(=O)Nc3ccc(Cl)c(C(F)(F)F)c3)cc2)ccn1` has a remaining activity of 105%.
The remaining activity of `COc1ccc(OC)c2c(=S)c3ccccc3[nH]c12` is reported as 99.2%.
For `Cc1ccc(NC(=O)c2ccc(CN3CCN(C)CC3)cc2)cc1Nc1nc(-c2cccnc2)cs1`, the remaining activity was 104%.
The remaining activity of `Cc1nc(-c2ccccc2)c(-c2ccncc2)o1` is reported as 102%.
`N#CC(C#N)=C(N)/C(C#N)=C/c1ccc(O)cc1` gave a remaining activity of 117%.
`O=C(Nc1cccc(Nc2cc(Nc3cccc(C(F)(F)F)c3)ncn2)c1)C1CC1` gave a remaining activity of 103%.
The remaining activity of `Nc1ncnc2n[nH]c(Nc3ccc(F)cc3)c12` is reported as 124%.
The remaining activity of `CN(C)c1ccc(C=C2C(=O)Nc3ccccc32)cc1` is reported as 101%.
`C#Cc1cccc(Nc2ncnc3cc(OCCOC)c(OCCOC)cc23)c1` has a remaining activity of 71.4%.
The remaining activity of `O=C1NC(=O)C(c2cn(CCCn3ccnc3)c3ccccc23)=C1Nc1ccccc1` is reported as 100%.
With `CC(C)[C@H](CO)Nc1nc(Nc2cc(N)cc(Cl)c2)c2ncn(C(C)C)c2n1` the remaining activity was 109%.
`O=c1c2ccccc2[nH]c(=S)n1CCN1CCC(=C(c2ccc(F)cc2)c2ccc(F)cc2)CC1` has a remaining activity of 114%.
For `O=C(CCCc1ccc(-c2ccccc2F)cc1)Nc1ccc(O)cc1`, the remaining activity was 114%.
For `Nc1[nH]nc2nc3ccccc3nc12`, the remaining activity was 90.1%.
With `O=C1NC(=O)C(c2cn(CCCO)c3ncccc23)=C1c1cnccn1` the remaining activity was 121%.
The remaining activity of `OCC(O)CCON=C1C(c2c(O)[nH]c3ccccc23)=Nc2ccccc21` (stereo not drawn) is reported as 123%.
With `CO[C@H]1C[C@@H]2CC[C@@H](C)[C@@](O)(O2)C(=O)C(=O)N2CCCC[C@H]2C(=O)O[C@H]([C@H](C)C[C@@H]2CC[C@@H](O)[C@H](OC)C2)CC(=O)[C@H](C)/C=C(\C)[C@@H](O)[C@@H](OC)C(=O)[C@H](C)C[C@H](C)/C=C/C=C/C=C/1C` the remaining activity was 98.1%.
For `COc1ccc(C(=O)Nc2sc3c(c2C(N)=O)CCCC3)cc1OC`, the remaining activity was 82.8%.
For `Cn1c2ccccc2c2c3c(c4c5ccccc5n(CCC#N)c4c21)CNC3=O`, the remaining activity was 100%.
`O=C(O)c1ccc2c3c1cccc3c(=O)n1c3ccccc3nc21` gave a remaining activity of 104%.

Block 2
Target: ATP-dependent RNA helicase DDX3X, helicase core (DDX3X, Homo sapiens, UniProt O00571, residues 132-607)
UniProt O00571, sequence (132-607, looked up): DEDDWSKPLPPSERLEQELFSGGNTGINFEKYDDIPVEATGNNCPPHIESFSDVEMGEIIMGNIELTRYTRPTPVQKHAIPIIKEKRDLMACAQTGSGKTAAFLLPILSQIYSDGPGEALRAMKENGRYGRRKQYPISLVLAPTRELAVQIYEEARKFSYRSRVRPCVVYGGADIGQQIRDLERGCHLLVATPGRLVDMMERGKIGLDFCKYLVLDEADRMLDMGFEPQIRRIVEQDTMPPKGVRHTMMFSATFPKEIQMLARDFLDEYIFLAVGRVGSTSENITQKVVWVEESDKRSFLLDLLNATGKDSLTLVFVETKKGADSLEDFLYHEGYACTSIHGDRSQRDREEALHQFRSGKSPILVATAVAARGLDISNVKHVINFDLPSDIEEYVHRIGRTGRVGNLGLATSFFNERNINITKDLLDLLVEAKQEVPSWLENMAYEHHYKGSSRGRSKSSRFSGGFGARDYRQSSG
Technique: RNA Bind-n-Seq
Form: RNA
Medium: in vitro
Tested at: not given
Notes: 4-mer, random 30-nt RNA, single round
Together with: RocA, ADP, phosphate
Reference: input library
Direction: higher = stronger binding
For `AGCG`, the 4-mer enrichment was 1.2 fold.
The 4-mer enrichment of `UUCC` is reported as 0.732 fold.
For `GUUA`, the 4-mer enrichment was 1.03 fold.
`AGGU` gave a 4-mer enrichment of 1.15 fold.
The 4-mer enrichment of `UGAU` is reported as 0.893 fold.
With `CAAG` the 4-mer enrichment was 0.956 fold.
For `CAAA`, the 4-mer enrichment was 0.832 fold.
`GUGA` gave a 4-mer enrichment of 1.43 fold.

Block 3
Compound: Cn1nc(C(=O)NCc2ccc(C(=O)O)cc2)cc1-c1ccc2[nH]ccc2c1
Read-out: cell-free assay
Technique: competition with immobilised ligand
Tested at: 0.1 µM
For Serine/threonine-protein kinase RIO3 (RIOK3, Homo sapiens, UniProt O14730): remaining binding read 83%.
It gave 92% for remaining binding (Dual specificity testis-specific protein kinase 1 (TESK1, Homo sapiens, UniProt Q15569)).
For Epidermal growth factor receptor (EGFR, Homo sapiens, UniProt P00533, G719S): remaining binding read 66%.
For Microtubule-associated serine/threonine-protein kinase 1 (MAST1, Homo sapiens, UniProt Q9Y2H9): remaining binding read 100%.

Block 4
Target: Prothrombin, mature alpha-thrombin (F2, Homo sapiens, UniProt P00734)
Technique: aptamer microarray, sandwich
Form: DNA with 2'F-ANA
Medium: in vitro
Tested at: 200 nM
Notes: whole 15-mer aptamer, many near background
Together with: Cy3 exosite-II aptamer, 400 nM
Direction: higher = stronger binding
Sequence: GGTTGGTGTGGTTGG
`2'F-ANA at 1 2 3 4 5 7 9 10 13 14`: “mean fluorescence intensity” 99.2 a.u.
Under “mean fluorescence intensity”, `2'F-ANA at 1 5 6 7 8 11 13 14` is recorded as 45.5 a.u.
For `2'F-ANA at 1 3 6 7 10 11 13 15`, “mean fluorescence intensity” read 258 a.u.
`2'F-ANA at 1 2 6 7 11 13 14` — result for “mean fluorescence intensity”: 48.3 a.u.
For `2'F-ANA at 1 2 4 10 12 13 14 15`, “mean fluorescence intensity” read 49.4 a.u.
`2'F-ANA at 2 3 4 5 6 8 9 12 14 15` — result for “mean fluorescence intensity”: 60.7 a.u.
`2'F-ANA at 1 4 6 9 10 11 12 13 14`: “mean fluorescence intensity” 48.3 a.u.
For `2'F-ANA at 1 3 5 7 9 13 15`, “mean fluorescence intensity” read 53.4 a.u.

Block 5
Target: CCNB1, cyclin fold, Cln2 fusion (human)
Technique: yeast growth competition, sequencing
Medium: yeast
Notes: weak parent motif
Reference: not given
Direction: higher = stronger binding
Starting sequence: RB1 docking peptide (human); PKPLKKLRFDIEG
For `PKPLPKLRFDIEG [K5P]`, “normalised enrichment score” read 0.4.
For `PKPNKKLRFDIEG [L4N]`, “normalised enrichment score” read 0.617.
Under “normalised enrichment score”, `PKPLKKFRFDIEG [L7F]` is recorded as 1.22.
`PKPTKKLRFDIEG [L4T]` — result for “normalised enrichment score”: 0.632.
Under “normalised enrichment score”, `GKPLKKLRFDIEG [P1G]` is recorded as 0.438.
Under “normalised enrichment score”, `PKPLKKLRVDIEG [F9V]` is recorded as 0.569.
`PKPLKKLRWDIEG [F9W]` — result for “normalised enrichment score”: 0.373.
`PKPYKKLRFDIEG [L4Y]` — result for “normalised enrichment score”: 0.913.

Some of these lines once more (block 1):
The remaining activity of `CN(C)c1ccc(C=C2C(=O)Nc3ccccc32)cc1` is reported as 101%.
`CCOC(=O)c1c(C)[nH]c(/C=C2\C(=O)Nc3ccccc32)c1C` has a remaining activity of 87.4%.
The remaining activity of `COc1ccc(OC)c2c(=S)c3ccccc3[nH]c12` is reported as 99.2%.
With `O=C1NC(=O)C(c2cn(CCCO)c3ncccc23)=C1c1cnccn1` the remaining activity was 121%.
`O=C(Nc1cccc(Nc2cc(Nc3cccc(C(F)(F)F)c3)ncn2)c1)C1CC1` gave a remaining activity of 103%.
